Published values collected from several papers.
A part holds a random share of what one study measured. Substitutions count along the parent as printed.

Set 1 — technique: RNA Bind-n-Seq; molecule type: RNA; sample: in vitro; tested at: 365 nM; baseline: no-protein control; direction: higher = stronger binding
Target: RNA binding protein fox-1 homolog 2, RRM domain, GST-SBP tag (RBFOX2, Homo sapiens, UniProt O43251-10, residues 100-194)
Setting: natural RNA segment, single round, ends assumed
All sequences stand within: GGGAGUUCUACAGUCCGACGAUC … UGGAAUUCUCGGGUGCCAA
Residues (chain): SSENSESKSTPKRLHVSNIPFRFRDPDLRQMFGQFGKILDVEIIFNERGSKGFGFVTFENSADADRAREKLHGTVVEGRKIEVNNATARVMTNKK
Sequence	RBNS enrichment (R)
GAGCAGAUCAUAGUAUAUGAGAUAGGAAUUCCCAUCCUAUUUGAGUUGAACUCUCUUCUGUACCUCUGUGCUCUGUGUCUGUGCAUGAAGGCUCAGUCUUUAGAGGCACU	13.7
UAUUCAAGCCAGAUAUUUGGAAGCAAAUGAUAUUUCCUCUUGCAGUGUCCACAAAUCUGAAUAUUAGGGGCAUGAAAUUAGGCUUACCAUCUGAUUUGUAAUUACAAUUU	0.714
AAGGAGAAGGGCUGUGAUCUCCGGUCCCUUCCCCCAUCAUCCUUCCUUAGACUGAUGCUUUGACUGAAUCAUCACUAGCUAUGGCAUUAAAAGGCCUCUCUUCUCAUCUG	0.619
GAAGGUUGGGAUCAAUCUUGUCAAGUCUAUGUUACACUUACUUUUACAAAAAAAAGUAUAUAUACAUAUUAUCAGCACACAAAAGCAACUCUGAGGUUGCUAGUGACAUU	0.463
GGUUUCCUUCCGUUAGCUUUUGGGUUUCCUCGGUGGCUCUGGCAAGGCUGCUGCUGUGUCAUUCGGUGCCUUUGUGAGUUUCCUUGCUGUAGGUGAUUCUUGACUGUGGG	0.33
CAACCCUGCGGAUGUGGUGGAAAUCAGGACACUGUCCCGGCCAUCUGAGACCUGCAAUGAGACCACCAAGCUUGGGGACUUUGUUCGAUACCAUUACAACUGUUCUUUGC	0.568
GUCAGACUGUUGCUACAUACAAUUGCCUUUGUAUCUUCGUAUGAAAUAAAAGGUCAUUUGUUCCUGUUGUGUUUAUUUUUCUUGGUUUUAUUGUUAGUUCCUGUUAGACG	0.771
GGCAAAGGUCACAGUGAUGCAAAAGACAAAACUGAUGUCCUUAUCCUUAGACAAUUAACCACCAAAUUCCCUGGGGUUCAUUGCCAUGCAGUUCAUUUCCCACUAACCAU	0.236
CUAACUUUGCCACUUCAAGCCUCAAGACAGAUUCAUGUAGCAGUUCCUCAAAACCCCCUGGAGGGGCAAAAGAUGACAGCGACACAGAGAAAGUUUGGGGCAUGAUAUAU	0.354
GAUGCCUCUCUGAGUGGAAAUCUUAUUUUUGUAGAUCUGUACUUUGCUCUCGAGGCUUGGAGAGAUGUGUGUCCCUCCCUGGCACUCACUUCAGGCCGCAUGGGCAGGAA	0.63
GCAAGUGCGAUCAGCAACAUUUUUCAACUUUCGCGCACUGUAAACCUAUUGCAUUCUUAGGCUACUGUGAGGUCUAUGUUUCUUGUACCUGAAAUUGUCCUUUGGACUCC	3.57
AUGGAGAGGUGGGCAGGGGUUCCAGCUUCCCUUUGAUUUUUUGCUGCAGACUCAUCCUUUUUAAAUGAGACUUGUUUUCCCCUCUCUUUGAGUCAAGUCAAAUAUGUAGA	0.624

Set 2 — technique: DHFR PCA, deep sequencing; sample: yeast; with: (+)-ABA 1.4 µM; baseline: wild-type fitted maximum; direction: higher = stronger binding
Target: ABI1, truncated, D143A, DHFR fusion (Arabidopsis thaliana)
Setting: methotrexate growth selection, single substitutions
Parent: PYL1, truncated, DHFR fusion (Arabidopsis thaliana); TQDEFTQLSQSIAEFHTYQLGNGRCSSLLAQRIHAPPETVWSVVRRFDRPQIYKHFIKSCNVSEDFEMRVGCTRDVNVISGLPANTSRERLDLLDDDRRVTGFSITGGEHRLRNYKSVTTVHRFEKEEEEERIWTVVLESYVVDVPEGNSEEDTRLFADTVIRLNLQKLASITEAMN; partner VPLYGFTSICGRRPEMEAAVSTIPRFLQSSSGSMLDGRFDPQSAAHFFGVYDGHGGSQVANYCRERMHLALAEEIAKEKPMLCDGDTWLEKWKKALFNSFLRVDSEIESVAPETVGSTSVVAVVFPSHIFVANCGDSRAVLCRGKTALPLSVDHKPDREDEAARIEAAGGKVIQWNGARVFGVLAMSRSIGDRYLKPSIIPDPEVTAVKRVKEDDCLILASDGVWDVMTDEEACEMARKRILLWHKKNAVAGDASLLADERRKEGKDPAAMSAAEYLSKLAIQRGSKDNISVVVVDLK
Variant	relative binding score [%]
S27V	1.25
L29D	4.81
N22Y	52.6
I133H	63
T6D	68.8
F157D	9.1
N61E	68.7
T135K	-5.84
R155M	31.1
N22L	47.7
E125T	59.8
L169G	1.11
E14N	-6.85
D144L	-13.1

Set 3 — technique: RNA Bind-n-Seq; molecule type: RNA; sample: in vitro; tested at: not given; baseline: input RNA pool; direction: higher = stronger binding
Target: RING finger protein unkempt homolog, zinc fingers 1-6, GST-SBP tag (UNK, Homo sapiens, UniProt Q9C0B0, residues 30-357)
Setting: RNA with constant flanks, human-mouse chimeric sites, ends assumed
All sequences stand within: GGGAGUUCUACAGUCCGACGAUC … CAACAGAGGAUUGAGCAUCA
Residues (chain): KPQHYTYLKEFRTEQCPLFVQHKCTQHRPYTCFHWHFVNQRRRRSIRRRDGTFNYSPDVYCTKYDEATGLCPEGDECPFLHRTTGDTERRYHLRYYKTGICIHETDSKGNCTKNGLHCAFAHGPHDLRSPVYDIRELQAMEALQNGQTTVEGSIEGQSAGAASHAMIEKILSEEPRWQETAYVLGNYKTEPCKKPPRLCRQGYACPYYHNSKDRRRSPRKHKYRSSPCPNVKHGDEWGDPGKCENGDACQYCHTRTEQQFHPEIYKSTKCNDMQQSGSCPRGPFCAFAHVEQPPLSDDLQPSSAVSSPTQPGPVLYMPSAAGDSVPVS
Sequence	bound/input enrichment [ratio]
CCUGCUCAGAUCACCAUGAAAGUAAUCCAAGGCCUAUAUAGUGGGGUCACCACAGUGGAACUGGACACCCUGGCUGCUGAAACAGCUGCAACCUUGACCACGAAGCACCCUGACUAUGCC	0.185
GUUCGGCUCUGGGAUCAUGCUACUAUGACAGAAGUGAAAUCUCUGAAUUUUAAUAUGUCUGUUAGCAGCAUGGAGUAUAUUCCUGAAGGAGAGAUUUUGGUUAUAACUUAUGGACGAUCU	0.471
UGACAAGGGCACUGCAGAGCCAUGCCUUUCCUUGACAUACAGAAAAAGCUGGGCAUCAACAUAGAUCGGCACUUUAUAAUCCAGAGUGCAGAACAGCCCUAUAAGAACGCCGCUCGGUGC	0.0921
UAAGUUAUUUUGUACAGUAAGUUAUUUUCUUAACAUUAAUUUGUAAACAUGUUUAUUUUGUUUGGGUAAUUUGGUUCAUUAAGUACAUAGCUAAGGUAAUGAACAUCUUUUUCAGUAAUU	0.775
GGCCUGGGACCGUCCUGGGCUAGUACAAAUAGCGGCAGUGGAGGCUCGAGAGGAAAGUUUGUUAGUGGAGGCAGUGGUAGAGGCCGUCAUGUACGGUCUUUACACGAUAAAAAUCCUUCU	0.245
GAUCAUGGAACCAGAAUCAGAAAUGAAAUGAGAUUACCCAGACGAGCCAAAACAGCUGCGCUACAGAAAAGUAAACUUAACCUUGCAGAGUUCCUUAAUGAAGAUACAAGUUAAGAGAGC	0.13
CAGACUGUGUCAUACUUUUUAGACAUUCACAUCAGACGCCUUACUACCCUGGCCACAUUCUAGGUUUGUGUUAUUUCUCAGCUAUGGAUAUGAUCAAAUGAGAACACUGCUUAACUAAUG	0.951
CAGUCCCCGUGUCCCAGUGCAGGACGAUGUGAACAAAAACUCAAAGCGGCCCUUUCUUUGUAGUUCUUUUUUUAAAUAAUGUGCUAUUAUUGUUUGUCUUUUUUUUUUUUUUUUUAAAGA	6.79
GGAAGUACAAUGAUGGAGAUUGAUGGUGACAAAGGCAAGCAGGGCGGGCCCACCUACUACAUAGACACCAAUGCCCUGCGUGUUCCGAGGGAGAACAUGGAGGCCAUCUCACCACUCAAG	0.209
AAAGAAAAUGGAGAAGUAAAGAUUUUGCUGAAAAGUGGGAAGGAGAAACCAAAAACAAAUAUAGAAGACUUACAAAUUAAAAAAGUAAAGAAGAAAAAGAAAAAGAAACACAAAGAGAAU	15.7
ACCUCCCCCUCCCGCCUCACCCCACCCAAGAAAGAAAAAAGUGUGUUGGCGUUUCUUUUCCUUCCCCAUACAAAGUGAUUACAGUUUCCCCCGCAAGGGUCUAUCGAAGGGCUUGACGGA	1.08

Set 4 — target: CCNB1, cyclin fold, Cln2 fusion (human); technique: yeast growth competition, sequencing; sample: yeast; setting: strong parent motif; baseline: not given; direction: higher = stronger binding
Parent: MICAL3 docking peptide (human); LQLRRQLSFSEDS; partner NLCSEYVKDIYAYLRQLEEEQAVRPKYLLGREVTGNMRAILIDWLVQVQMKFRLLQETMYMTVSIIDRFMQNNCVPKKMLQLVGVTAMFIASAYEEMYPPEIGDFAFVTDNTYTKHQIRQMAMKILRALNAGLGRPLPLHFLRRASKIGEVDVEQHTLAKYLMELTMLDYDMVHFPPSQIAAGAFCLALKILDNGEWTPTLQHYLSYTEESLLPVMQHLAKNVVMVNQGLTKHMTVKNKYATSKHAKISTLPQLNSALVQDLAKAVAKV
Variant	normalised enrichment score
Q6W	0.823
L3H	0.507
Q2F	4.03
L7W	0.0883
D12P	4.17
R5V	0.585
R5A	0.546
L3I	5.34
F9T	0.262
F9V	-0.221
E11C	3.18
S10H	3.23
S10V	2.11
S8V	2.41
L3D	0.0941
S8Q	1.69
S8A	1.16
Q2T	4.74

Set 5 — target: CEBPA, bZIP domain (human); technique: DHFR protein complementation; sample: yeast; baseline: wild-type JUN-FOS pair; direction: higher = stronger binding
Setting: single substitutions, most at no-binding floor
Parent: JUN, bZIP domain (human); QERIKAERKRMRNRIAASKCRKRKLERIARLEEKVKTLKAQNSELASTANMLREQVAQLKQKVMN; partner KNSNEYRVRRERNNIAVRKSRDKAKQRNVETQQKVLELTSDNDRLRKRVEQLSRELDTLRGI
Variant	binding fitness [natural log]
L31V	-1.44
L31P	-1.48
A46M	-1.42
A46Y	-1.56
A40H	-1.51
A40F	-1.42
K34Y	-1.4
A29Q	-1.44
K39M	-1.38
A49L	-1.37
Q55W	-1.51
V56S	-1.58
K36E	-1.42
L45C	-1.55
R30Y	-1.58
S47Q	-1.34
L59H	-1.42

Set 6 — technique: RNAcompete; molecule type: RNA; sample: in vitro; tested at: 20 nM; setting: 7-mer, probes averaged, single round; baseline: mean of 7-mers; direction: higher = stronger binding
Target: PABPC1L2, full length, GST fusion (mouse, UniProt A0ABA7IW68)
Construct (chain): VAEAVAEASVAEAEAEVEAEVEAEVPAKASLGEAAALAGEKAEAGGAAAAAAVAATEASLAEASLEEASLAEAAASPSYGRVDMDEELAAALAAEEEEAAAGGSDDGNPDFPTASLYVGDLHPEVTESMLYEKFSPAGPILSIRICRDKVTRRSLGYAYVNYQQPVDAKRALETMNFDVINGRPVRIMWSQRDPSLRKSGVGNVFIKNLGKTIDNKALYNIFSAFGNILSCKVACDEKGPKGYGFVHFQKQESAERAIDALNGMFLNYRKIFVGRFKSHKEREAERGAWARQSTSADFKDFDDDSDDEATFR
Sequence	7-mer Z-score
AAGUGCC	0.162
GCAGCUA	-0.0518
AAGAUAG	0.408
GGCCAUA	-0.0772
CAGUCAA	-0.202
UUCGAAU	-0.24
GCUCUGG	-0.153
AGUAACA	0.151
AUUUAAU	0.209
CCCGGUU	-0.445
CCUACUC	-0.322
AAUGGAU	0.341
AUUCGUC	-0.353
UUUAGCU	-0.112
GCUAAUC	-0.204
GCAUAAU	-0.104
CACUGGG	-0.0101
GAACAUU	-0.121
AUGAUGC	-0.101
CUGCGUA	-0.197
UCGUCAG	-0.354
AGCAACG	-0.021
UGGAGGA	0.238
CCUGUCG	-0.322
UUGUGUA	-0.47

For quick reference, copied from above (set 2):
Variant	relative binding score [%]
T6D	68.8
F157D	9.1
N61E	68.7
T135K	-5.84
R155M	31.1
N22L	47.7
E125T	59.8
L169G	1.11
